# Measured values pooled from the literature.
# Numbered parts are unrelated; each lists some results of a single study.

# Sample 1
# Target: Prothrombin, mature alpha-thrombin (F2, Homo sapiens, UniProt P00734)
# Method: aptamer microarray, sandwich
# Molecule type: DNA with 2'F-ANA
# Sample: in vitro
# Tested at: 200 nM
# Notes: whole 15-mer aptamer, many near background
# With: Cy3 exosite-II aptamer, 400 nM
# Reading: higher = stronger binding
# Oligonucleotide: GGTTGGTGTGGTTGG
Modification,mean fluorescence intensity
2'F-ANA at 1 4 6 7 11 12,196 a.u.
2'F-ANA at 1 4 5 6 7 9 10 11 12 13 14,47.7 a.u.
2'F-ANA at 1 2 7 8 11 12 13 14 15,72.2 a.u.
2'F-ANA at 1 2 5 7 8 9 11 13 14 15,50.8 a.u.
2'F-ANA at 4 5 7 8 14,47.7 a.u.
2'F-ANA at 1 2 3 7 10 12 15,99 a.u.
2'F-ANA at 1 3 8 10 11 13 14,122 a.u.

# Sample 2
# Molecule: PhoQ, residues 284 288 289 292 302 303 ASVMEA
# Method: Sort-seq
# Refers to: YFP reporter
# Sample: E. coli
# Notes: PhoQ-PhoP variant library
# With: 10 µM Mg2+
# Relative to: high Mg2+ state
# Reading: higher = stronger signaling
target,fold induction
"PhoP, residues 12 14 15 18 19 SFCSL (Escherichia coli, UniProt P23836)",17.5
"PhoP, residues 12 14 15 18 19 AYFRS (Escherichia coli, UniProt P23836)",12.8
"PhoP, residues 12 14 15 18 19 HHYTI (Escherichia coli, UniProt P23836)",2.28

# Sample 3
# Target: Sal-like protein 4, full length isoform B (SALL4, Homo sapiens, UniProt Q9UJQ4-2, residues 1-616)
# Method: universal PBM
# Molecule type: double-stranded DNA, one strand shown
# Sample: in vitro
# Tested at: not given
# Notes: 8-mer, flanks averaged, mean of replicates
# Reading: higher = stronger binding
# Residues (chain): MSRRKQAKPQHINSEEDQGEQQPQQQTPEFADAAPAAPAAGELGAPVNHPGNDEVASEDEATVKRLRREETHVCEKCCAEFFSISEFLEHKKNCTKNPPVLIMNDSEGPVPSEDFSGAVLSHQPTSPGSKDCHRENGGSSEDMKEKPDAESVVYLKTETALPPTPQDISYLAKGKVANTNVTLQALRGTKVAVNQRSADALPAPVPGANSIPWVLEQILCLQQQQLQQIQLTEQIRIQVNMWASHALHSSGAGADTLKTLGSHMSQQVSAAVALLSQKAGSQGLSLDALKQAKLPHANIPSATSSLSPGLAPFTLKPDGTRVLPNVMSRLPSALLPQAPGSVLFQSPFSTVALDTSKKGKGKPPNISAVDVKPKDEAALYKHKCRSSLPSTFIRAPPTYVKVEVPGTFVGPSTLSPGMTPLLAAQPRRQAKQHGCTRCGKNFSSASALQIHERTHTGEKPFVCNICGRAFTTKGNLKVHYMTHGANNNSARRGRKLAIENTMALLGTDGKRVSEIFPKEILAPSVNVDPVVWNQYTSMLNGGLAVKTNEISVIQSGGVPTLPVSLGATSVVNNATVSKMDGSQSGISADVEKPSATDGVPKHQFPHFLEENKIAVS
Oligonucleotide,E-score
GGGACGAC,-0.227
CACCACCC,-0.217
CATGTCAC,0.088
ACGGTATG,0.0397
ATCCTGTA,0.233
TGCTTCAA,0.0598
CGCCTTGC,-0.0689
AGGTATTA,0.255
TGACGGCA,-0.131
AAGTGATC,0.0966

# Sample 4
# Target: RNA binding protein fox-1 homolog 2, RRM domain, GST-SBP tag (RBFOX2, Homo sapiens, UniProt O43251-10, residues 100-194)
# Method: RNA Bind-n-Seq
# Molecule type: RNA
# Sample: in vitro
# Tested at: 365 nM
# Notes: natural RNA segment, single round, ends assumed
# Relative to: no-protein control
# Reading: higher = stronger binding
# Constant ends, left off below: GGGAGUUCUACAGUCCGACGAUC … UGGAAUUCUCGGGUGCCAA
# Construct (chain): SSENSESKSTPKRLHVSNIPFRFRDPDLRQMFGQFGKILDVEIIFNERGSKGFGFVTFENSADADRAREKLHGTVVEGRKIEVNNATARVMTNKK
Oligonucleotide,RBNS enrichment (R)
UCUUCCAAAGCAGCAAGUCAAUCAAUACAAUAAUGAUAUUUGGGGAGGGGUGGGAGCCCUUAAGAACUAUUGAUGUGGCCUUAAAUUACUGUCAUUUAUUAUCCUAAAGA,0.499
UGGACACAAGCUUAGAUUCUCUAUGUAUAGUUCCCCGUGUUCACUAACAUGCCCUCUCUGGAAAGCAUAUGUAUAUAACAUGUGUCAUGUCCUUUGGAAACCUGGUCACC,0.182
AAAUAGCUGUUAGACACCUUUGAUUCUUUGCUGCUCUCUGGUUAUGUAUGUGUGUUGUGCAUCUUCCUUGUUGUUUUAGAGUUUCCUAAAUUUUUUGCUUCUGGGGACUU,2.32
GGGGCAGUGGGUUGGGGUUGUUUUUACUACAAAAUAAGUUACUUAGUUUUAUAAAGACAAACCGAUUGUAGCCAAAUGACACCAUAUUUAAUAAAAUUUAGUCUGAAGUG,0.588
CACAGUCUGGAGGCGGCUGCUUUUGUACCUUCCUGCCUGCUACUAAUUCAGGGUCUCAUUUGGAACAUUUUUCCUUUGGGUAGUGGUCAGGAACUGGUGUAAGUCCUCCA,0.537
CUCAUAAACCAUCUCUGCAUCACCAUGAACCCAGACUAGCUGUGGUGCCAGAAACCUGAACUUAAACAACAGUUCUCAGUGCAAACUGUCCUAGGAAAAUUUAAAGAUGA,0.521
UCUUUUUUUGCUGCCUUGCUUGAGUUGCUUGUGACUGAUCUUUUGAGGCUGUCAUCAUGGCUAGGGUUCUUUUAUGUAUGUUAAAUUAAAACCUGAAUUCAGAGGUAACG,7.38
UUUUAAACCUCCCUGUAUAGAAAAUAUCAUUAAGGAUGUAAAAGCCAUGCUUGCCUAUUUGCUGUAUACAUGUAAUGAAAUUGUAGAUAAAGUGUAGUGCAUUGAAACAA,1.61
CCCUCAUCGUGGUCUGUGCCAUGUCCCGUCUCUAUGGUGGUUGAGGAGAAAGGCGGGGAAGCUUCCUCAGCCUUGCAGAUAUGUGUGGCAUUUACUAGCCAGAGCUCUGA,0.437
AGUGUCAAAGCAGCUUGUGUUGGGGCGUGUGGGACUUGAGGAUUGGGGAUUGACAGGUUUCAUCAUCGGAUAGACAUUUGGUUAUCCAGAGAGAAUUGGUAAUUUGCCAG,1.27

# For quick reference, copied from above (sample 3):
Oligonucleotide,E-score
CACCACCC,-0.217
CATGTCAC,0.088
ACGGTATG,0.0397
